# Results collected from several papers.
# A part holds a random share of what one study measured. ± marks the error that the study gave.
# Chain of UniProt P35968 (whole entry, looked up): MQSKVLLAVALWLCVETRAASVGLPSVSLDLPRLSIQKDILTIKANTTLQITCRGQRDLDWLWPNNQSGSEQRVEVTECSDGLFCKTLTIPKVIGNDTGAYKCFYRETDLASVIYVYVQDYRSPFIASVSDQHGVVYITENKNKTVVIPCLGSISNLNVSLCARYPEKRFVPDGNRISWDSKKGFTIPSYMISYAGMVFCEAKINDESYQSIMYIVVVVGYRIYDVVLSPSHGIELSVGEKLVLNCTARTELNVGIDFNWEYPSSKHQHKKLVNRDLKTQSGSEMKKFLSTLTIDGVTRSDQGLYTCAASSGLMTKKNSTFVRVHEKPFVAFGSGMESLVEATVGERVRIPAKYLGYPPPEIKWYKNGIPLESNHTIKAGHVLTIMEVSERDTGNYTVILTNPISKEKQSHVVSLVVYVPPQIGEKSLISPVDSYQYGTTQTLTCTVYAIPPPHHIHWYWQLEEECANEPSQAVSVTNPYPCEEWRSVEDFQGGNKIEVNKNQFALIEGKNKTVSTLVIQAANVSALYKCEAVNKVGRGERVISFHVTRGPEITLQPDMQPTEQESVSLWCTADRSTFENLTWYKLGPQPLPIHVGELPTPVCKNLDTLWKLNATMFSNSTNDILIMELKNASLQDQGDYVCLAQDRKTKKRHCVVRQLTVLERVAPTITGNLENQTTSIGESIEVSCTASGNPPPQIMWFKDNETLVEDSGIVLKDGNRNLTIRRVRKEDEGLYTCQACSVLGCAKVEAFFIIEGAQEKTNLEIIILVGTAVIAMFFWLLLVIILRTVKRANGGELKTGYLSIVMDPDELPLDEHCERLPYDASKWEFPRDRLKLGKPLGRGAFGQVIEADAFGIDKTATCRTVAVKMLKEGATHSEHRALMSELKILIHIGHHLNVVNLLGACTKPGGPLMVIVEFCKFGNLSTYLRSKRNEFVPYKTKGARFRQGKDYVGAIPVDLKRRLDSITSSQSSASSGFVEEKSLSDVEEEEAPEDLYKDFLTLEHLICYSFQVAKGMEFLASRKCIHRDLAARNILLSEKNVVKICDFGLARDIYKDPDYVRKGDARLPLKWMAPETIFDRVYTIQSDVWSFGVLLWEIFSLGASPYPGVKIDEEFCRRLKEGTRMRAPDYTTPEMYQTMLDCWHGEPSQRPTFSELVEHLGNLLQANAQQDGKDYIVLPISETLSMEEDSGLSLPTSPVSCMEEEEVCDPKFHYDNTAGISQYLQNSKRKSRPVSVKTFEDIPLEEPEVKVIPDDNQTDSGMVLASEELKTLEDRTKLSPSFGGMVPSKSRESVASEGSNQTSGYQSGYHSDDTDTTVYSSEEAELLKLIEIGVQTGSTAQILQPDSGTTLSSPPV
# Chain of UniProt Q7KZI7 (whole entry, looked up): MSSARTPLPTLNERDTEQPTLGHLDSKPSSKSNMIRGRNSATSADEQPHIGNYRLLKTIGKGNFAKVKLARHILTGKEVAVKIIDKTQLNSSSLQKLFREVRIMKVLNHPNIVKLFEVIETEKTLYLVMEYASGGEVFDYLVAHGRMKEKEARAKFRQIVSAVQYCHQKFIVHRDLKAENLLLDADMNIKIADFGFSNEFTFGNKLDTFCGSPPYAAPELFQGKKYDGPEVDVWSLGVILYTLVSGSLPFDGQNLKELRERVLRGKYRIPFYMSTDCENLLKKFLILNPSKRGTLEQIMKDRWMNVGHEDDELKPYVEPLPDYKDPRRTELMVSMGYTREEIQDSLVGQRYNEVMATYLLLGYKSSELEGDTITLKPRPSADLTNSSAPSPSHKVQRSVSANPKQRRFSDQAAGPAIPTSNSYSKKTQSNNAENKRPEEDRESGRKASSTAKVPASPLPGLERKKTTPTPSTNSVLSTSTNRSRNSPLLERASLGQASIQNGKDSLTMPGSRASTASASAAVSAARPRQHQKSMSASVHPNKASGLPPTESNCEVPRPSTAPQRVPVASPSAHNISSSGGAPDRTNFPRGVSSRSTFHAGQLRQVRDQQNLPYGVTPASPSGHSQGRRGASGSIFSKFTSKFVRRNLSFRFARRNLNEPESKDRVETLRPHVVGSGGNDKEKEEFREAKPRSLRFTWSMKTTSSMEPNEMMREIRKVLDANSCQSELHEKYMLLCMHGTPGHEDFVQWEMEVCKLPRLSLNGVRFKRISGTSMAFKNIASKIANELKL
# Chain of UniProt P10721 (whole entry, unmodified, looked up): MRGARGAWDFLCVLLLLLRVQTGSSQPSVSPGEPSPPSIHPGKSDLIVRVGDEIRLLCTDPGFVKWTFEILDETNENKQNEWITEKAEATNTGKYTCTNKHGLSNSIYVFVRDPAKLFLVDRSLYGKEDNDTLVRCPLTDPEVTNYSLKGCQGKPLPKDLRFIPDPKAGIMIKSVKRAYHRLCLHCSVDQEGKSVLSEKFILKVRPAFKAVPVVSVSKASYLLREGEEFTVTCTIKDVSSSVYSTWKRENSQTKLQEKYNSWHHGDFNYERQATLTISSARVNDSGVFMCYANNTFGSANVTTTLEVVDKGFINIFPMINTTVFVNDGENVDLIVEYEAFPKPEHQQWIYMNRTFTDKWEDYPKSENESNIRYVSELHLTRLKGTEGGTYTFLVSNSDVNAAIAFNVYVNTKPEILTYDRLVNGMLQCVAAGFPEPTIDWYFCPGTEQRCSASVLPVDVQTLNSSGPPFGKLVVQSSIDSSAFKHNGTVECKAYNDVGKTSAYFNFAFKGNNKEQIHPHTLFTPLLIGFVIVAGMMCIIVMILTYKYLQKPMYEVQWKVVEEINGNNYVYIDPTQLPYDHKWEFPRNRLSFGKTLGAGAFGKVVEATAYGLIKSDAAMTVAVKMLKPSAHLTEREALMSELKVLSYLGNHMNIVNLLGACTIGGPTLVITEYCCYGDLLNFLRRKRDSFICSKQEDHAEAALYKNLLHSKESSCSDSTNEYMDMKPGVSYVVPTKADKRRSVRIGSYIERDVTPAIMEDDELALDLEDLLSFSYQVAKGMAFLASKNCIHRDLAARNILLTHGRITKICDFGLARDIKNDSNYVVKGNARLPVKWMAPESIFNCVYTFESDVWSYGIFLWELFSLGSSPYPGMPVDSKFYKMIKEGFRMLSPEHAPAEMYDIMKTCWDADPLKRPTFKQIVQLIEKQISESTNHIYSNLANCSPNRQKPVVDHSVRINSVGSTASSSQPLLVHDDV
# Chain of UniProt O75676 (whole entry, looked up): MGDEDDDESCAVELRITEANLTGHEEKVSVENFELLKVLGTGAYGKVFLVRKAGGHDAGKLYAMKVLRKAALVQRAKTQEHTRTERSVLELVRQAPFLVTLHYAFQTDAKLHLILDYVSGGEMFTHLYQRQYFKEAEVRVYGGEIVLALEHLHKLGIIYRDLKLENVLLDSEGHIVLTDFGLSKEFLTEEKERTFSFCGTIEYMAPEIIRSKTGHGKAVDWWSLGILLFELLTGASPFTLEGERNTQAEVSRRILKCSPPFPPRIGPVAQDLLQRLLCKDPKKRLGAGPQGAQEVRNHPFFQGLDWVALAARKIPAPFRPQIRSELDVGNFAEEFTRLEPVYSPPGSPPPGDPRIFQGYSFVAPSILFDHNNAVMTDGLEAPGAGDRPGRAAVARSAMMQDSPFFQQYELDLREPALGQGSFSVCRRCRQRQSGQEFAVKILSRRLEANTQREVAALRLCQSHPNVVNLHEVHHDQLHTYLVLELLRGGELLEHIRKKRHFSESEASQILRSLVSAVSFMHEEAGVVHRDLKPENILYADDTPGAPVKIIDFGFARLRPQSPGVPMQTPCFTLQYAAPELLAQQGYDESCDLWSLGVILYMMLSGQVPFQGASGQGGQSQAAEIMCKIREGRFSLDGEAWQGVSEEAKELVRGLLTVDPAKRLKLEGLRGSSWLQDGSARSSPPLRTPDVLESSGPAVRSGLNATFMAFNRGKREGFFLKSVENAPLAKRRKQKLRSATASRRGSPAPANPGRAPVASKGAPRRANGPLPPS
# Chain of UniProt O75914 (whole entry, looked up): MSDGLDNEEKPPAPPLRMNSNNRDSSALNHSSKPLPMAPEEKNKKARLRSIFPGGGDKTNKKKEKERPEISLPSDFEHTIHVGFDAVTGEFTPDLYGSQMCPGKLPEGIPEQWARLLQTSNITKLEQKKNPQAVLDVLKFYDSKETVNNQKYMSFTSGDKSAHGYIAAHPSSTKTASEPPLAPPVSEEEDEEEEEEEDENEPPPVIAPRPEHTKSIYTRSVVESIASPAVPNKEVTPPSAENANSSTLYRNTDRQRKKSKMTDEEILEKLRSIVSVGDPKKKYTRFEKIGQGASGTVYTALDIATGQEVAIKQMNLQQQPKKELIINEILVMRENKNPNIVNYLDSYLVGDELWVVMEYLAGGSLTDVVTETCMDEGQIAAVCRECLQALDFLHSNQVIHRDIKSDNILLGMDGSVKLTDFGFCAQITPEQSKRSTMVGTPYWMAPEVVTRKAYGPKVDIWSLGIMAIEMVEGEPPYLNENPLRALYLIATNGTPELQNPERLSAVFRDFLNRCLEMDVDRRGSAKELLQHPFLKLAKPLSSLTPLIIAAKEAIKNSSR
# Chain of UniProt P49761 (whole entry, looked up): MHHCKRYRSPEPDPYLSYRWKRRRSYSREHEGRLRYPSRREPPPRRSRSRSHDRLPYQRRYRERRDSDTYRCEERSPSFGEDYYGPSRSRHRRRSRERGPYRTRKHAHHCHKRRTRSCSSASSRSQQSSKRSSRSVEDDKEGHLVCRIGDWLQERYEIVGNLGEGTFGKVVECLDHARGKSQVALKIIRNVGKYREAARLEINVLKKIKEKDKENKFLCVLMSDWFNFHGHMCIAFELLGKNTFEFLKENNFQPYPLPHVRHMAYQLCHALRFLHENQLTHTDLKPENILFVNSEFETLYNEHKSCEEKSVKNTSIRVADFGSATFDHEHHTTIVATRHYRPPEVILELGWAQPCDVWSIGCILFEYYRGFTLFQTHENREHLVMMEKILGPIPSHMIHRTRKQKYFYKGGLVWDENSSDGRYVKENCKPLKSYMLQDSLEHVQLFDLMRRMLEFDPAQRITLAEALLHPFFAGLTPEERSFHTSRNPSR

# Series 1 — observed: cell-free assay; technique: competition with immobilised ligand; tested at: 1 µM
# Structure (SMILES): O=C1CCc2cc(Nc3cc(OC4CCOCC4)c([N+](=O)[O-])cc3Cl)ccc2N1
target,remaining binding [%]
"Ribosomal protein S6 kinase alpha-2, C-terminal kinase domain (RPS6KA2, Homo sapiens, UniProt Q15349)",92
"TNK2 (Homo sapiens, UniProt Q07912)",100
"KIT (Homo sapiens, UniProt P10721, V559D/V654A)",92

# Series 2 — cell line: mouse MPNST tumor cells; technique: high-content nuclear imaging; item: cell number; tested at: 10 µM; time: 12 h; setting: mean of 2 replicates; relative to: plate mean; direction: higher = more cells
Compound,nuclei count [z-score]
C=CC1=C(C(=O)O)N2C(=O)[C@@H](NC(=O)/C(=N\O)c3csc(N)n3)[C@H]2SC1,0.868
S=c1[nH]cnc2nc[nH]c12,-0.356
CCOC(=O)[C@@H](C)Oc1cccc2c(=O)n(CC(=O)Nc3ccc4c(c3)OCCO4)ccc12,0.326

# Series 3 — technique: DNA-protein interaction ELISA; form: double-stranded DNA, one strand shown; sample: in vitro, bacterial lysate; tested at: not given; setting: whole dsDNA probe, crude lysate protein; relative to: highest signal in screen; direction: higher = stronger binding
# Target: Probable WRKY transcription factor 50, DNA-binding domain (WRKY50, Arabidopsis thaliana, UniProt Q8VWQ5, residues 99-173)
# Residues (chain): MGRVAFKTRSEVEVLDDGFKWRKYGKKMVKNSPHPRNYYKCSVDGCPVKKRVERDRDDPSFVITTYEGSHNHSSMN
Oligonucleotide,relative absorbance
AAAAAACCAACTCTCTTTCGGACTATAAAA,37.3 % of maximum
AAAAAACTGCTAATCGGTGACCCGATAAAA,22.4 % of maximum
AAAAAAGTTCGTGCTTAACCCAGTTTAAAA,25.5 % of maximum
AAAAAATAGACCCTGACCCACCATTGAAAA,23.9 % of maximum
AAAAAAATTCGCAACCCTCACGTTCGAAAA,16.9 % of maximum
AAAAAACGCTCCGTTTTTGCAATGCGAAAA,12 % of maximum
AAAAAAAGGTTTGGGCTTCACGTTATAAAA,27.7 % of maximum
AAAAAAGTGCGTTCACGCTTGTATCTAAAA,16.6 % of maximum

# Series 4 — Structure (SMILES): Oc1ccc(Nc2nc(-c3ccc(Cl)cc3)cs2)cc1; observed: enzyme activity; action: inhibitor; tested at: 0.5 µM; relative to: control
target,remaining activity [%]
"NEK3 (Homo sapiens, UniProt P51956)",98.4
"RPS6KA4 (Homo sapiens, UniProt O75676)",91.5
"KDR (Homo sapiens, UniProt P35968)",101
"CLK4 (Homo sapiens, UniProt Q9HAZ1)",98.8
"TXK (Homo sapiens, UniProt P42681)",100
"PAK3 (Homo sapiens, UniProt O75914)",124
"MARK2 (Homo sapiens, UniProt Q7KZI7)",102
"PRKG2 (Homo sapiens, UniProt Q13237)",92.9
"MARK4 (Homo sapiens, UniProt Q96L34)",103
"MET (Homo sapiens, UniProt P08581)",99.4
"CLK3 (Homo sapiens, UniProt P49761)",92.6
"MAPK14 (Homo sapiens, UniProt Q16539)",98.6
"Myosin-IIIb (MYO3B, Homo sapiens, UniProt Q8WXR4)",98.7

# Single results of other studies
SMILES,tested on,test,system,conditions,endpoint,result
COc1cc(C(=O)N2CCC(N3CCN(C)CC3)CC2)ccc1Nc1ncc2c(n1)N(C)c1ccccc1C(=O)N2C,CK2,kinase activity,,10 µM,remaining activity,80 ± 4%
CC(C)n1cnc(-c2ccc(F)cc2)c1-c1ncc(C(=O)Nc2ccc(N3CCN(C)CC3)cc2)[nH]1,,,"human, idiopathic pulmonary fibrosis","60 mg once daily, trial, treatment-emergent",patients with blurred vision,0%

# Excerpt of the above (series 3):
Oligonucleotide,relative absorbance
AAAAAACCAACTCTCTTTCGGACTATAAAA,37.3 % of maximum
AAAAAAGTGCGTTCACGCTTGTATCTAAAA,16.6 % of maximum
AAAAAAGTTCGTGCTTAACCCAGTTTAAAA,25.5 % of maximum
AAAAAATAGACCCTGACCCACCATTGAAAA,23.9 % of maximum
